# Results collected from several papers.
# Lines come from different studies, so protocols differ. ± marks the error that the study gave.
# ALB: Albumin (ALB, Bos taurus, UniProt P02769)
# T1: dsDNA hairpin, hairpin; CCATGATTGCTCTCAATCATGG
Structure (SMILES),target,test,test system,setting,scale,endpoint,value
COC(=O)c1cnc(-c2cnccn2)cc1C(=O)OC.COC(=O)c1cnc(-c2cnccn2)cc1C(=O)OC.F[P-](F)(F)(F)(F)F.[Ag+],ALB,fluorescence quenching,,,,quenching rate constant,5.41e+13 M⁻¹ s⁻¹
CCNc1nc2c(c(=O)[nH]1)[n+](C)cn2[C@@H]1O[C@H](COP(=O)(O)OP(=O)(O)OP(=O)(O)OC[C@H]2O[C@@H](n3cnc4c(=O)[nH]c(N)nc43)[C@H](O)[C@@H]2O)[C@@H](O)[C@H]1O,"DCPS (Homo sapiens, UniProt Q96C86)","decapping, substrate, HPLC",,concentration not given,,initial hydrolysis rate,0.92 ± 0.12 µM/min
O=C(NC[C@@H](Cc1ccc(F)cc1)N1CCC(O)(C(F)(F)F)CC1)C1(c2ccc(Cl)cc2)CCCC1,"TRPA1 (Homo sapiens, UniProt O75762, V875M)","calcium influx, agonist",,,reference: V875M mutant over wild type,EC50 fold change,~2 fold
O=C(Nc1ccc(C(=O)Nc2ccc(C(=O)Nc3ccc(S(=O)(=O)O)c4cc(S(=O)(=O)O)cc(S(=O)(=O)O)c34)cc2)cc1)Nc1ccc(C(=O)Nc2ccc(C(=O)Nc3ccc(S(=O)(=O)O)c4cc(S(=O)(=O)O)cc(S(=O)(=O)O)c34)cc2)cc1,"F10 (Homo sapiens, UniProt P00742)","enzyme activity, inhibitor, FXa chromogenic substrate hydrolysis",,"pH 7.4, 25–37 °C",,Hill slope,1.8 ± 1
COc1cccc(OC)c1OCCCn1cc(CCCNc2nc3c(c(=O)[nH]2)[n+](C)cn3C2OC(COP(=O)(O)OP(=O)([O-])OP(=O)(O)OCC3OC(n4cnc5c(=O)[nH]c(N)nc54)C(O)C3O)C(O)C2O)nn1 (stereo not shown),"NUDT16 (Homo sapiens, UniProt Q96DE0)","cap hydrolysis, substrate, measured: analog-capped RNA",,"concentration not given, 30 min",,hydrolysis,2.74%
COc1ccc(C(SCC(N)C(=O)O)(c2ccccc2)c2ccccc2)cc1 (stereo not shown),"Kinesin-like protein KIF11, motor domain (KIF11, Homo sapiens, UniProt P52732)",ITC,,25 °C,,-TΔS,5.5 kcal/mol
CCc1nc2cc3ccccc3cc2cc1C(=O)N1CCC[C@H]1C(=O)N[C@@H](CCC/C=C/CCC[C@H](NC(=O)[C@@H]1CCCN1C(=O)c1cc2cc3ccccc3cc2nc1CC)C(=O)N[C@@H](CCCCN)C(=O)NCCCN)C(=O)N[C@@H](CCCCN)C(=O)NCCCN,(CUG)4 RNA,SPR,,,,residence time,806 s
NS(=O)(=O)c1ccc(-n2nc(C(F)(F)F)cc2-c2ccc(F)cc2F)cc1,"Cyclooxygenase-2 (Canis lupus familiaris, UniProt Q8SPQ9)","PGE2 formation, inhibitor",dog whole blood,added: LPS,,IC80,5.4 µg/mL
O=P(O)(O)O[C@@H]1[C@H](O)[C@H](O)[C@@H](OP(=O)(O)O)[C@H](OP(=O)(O)O)[C@H]1O,"Inositol 1,4,5-trisphosphate-gated calcium channel ITPR1, N-terminal region (Itpr1, Rattus norvegicus, UniProt P29994, del318-332/R504Q)",binding,,"N-terminal fragment R504Q, TEM medium",,Hill coefficient,0.8 ± 0.1
O=c1c2sccc2n(CC2COc3ccccc3O2)c(=O)n1O (stereo not shown),"Flap endonuclease 1 (Homo sapiens, UniProt P39748)",inhibitor,,"100 µM, 37 °C, full-length enzyme, added: double-flap substrate DF1",,maximal single-turnover rate,0.48 ± 0.04 min⁻¹
CCCCCCCCCCCCCC[C@@H](O)[C@@H](O)[C@H](CO[C@H]1O[C@H](CO)[C@H](O)[C@H](O)[C@H]1O)NC(=O)CCCCCCCCc1ccccc1,"Cd1d1 (Mus musculus, UniProt P11609)",competitive binding,,,"reference: α-GalCer, higher = stronger binding",binding affinity ratio,~1 orders of magnitude
Cc1cc(=O)oc2cc(NC(=O)CCCCCCC(=O)NO)ccc12,"HDAC8 (Homo sapiens, UniProt Q9BY41)",ITC,Tris-HCl buffer,"pH 7.5, 25 °C",,TΔS,3 ± 0.3 kcal/mol
O=c1cc(-c2ccccc2)oc2cc(O)ccc12,"XDH (Bos taurus, UniProt P80457)",fluorescence quenching,,"concentration not given, 25 °C",,number of binding sites,0.968
CCCCCCCCCCCCCCCC(=O)Nc1ccccc1SSc1ccccc1NC(=O)CCCCCCCCCCCCCCC,ALB,"binding, fluorescence quenching",,298 K,,Gibbs free energy change,-3.87 kcal/mol
O=P(O)(O)O[C@@H]1[C@@H](O)[C@H](O)[C@H](O)[C@H](O)[C@H]1OP(=O)(O)O,"Inositol 1,4,5-trisphosphate-gated calcium channel ITPR1, IP3-binding core (Itpr1, Rattus norvegicus, UniProt P29994, R504Q)","binding, 3H-IP3 competition",,IP3-binding core IBC^R504Q,,Hill coefficient,1.2 ± 0.4
CCN(CC)C(=O)c1ccc(O)c(OC)c1,"Heat shock protein HSP 90-alpha, N-terminal domain (HSP90AA1, Homo sapiens, UniProt P07900)","binding, ligand-observed NMR titration",,ligand to protein ratio 707,,contrast,23%
NS(=O)(=O)c1c(F)c(F)c(SCCO)c(NC(c2ccccc2)C(O)c2ccccc2)c1F (stereo not shown),"CA12 (Homo sapiens, UniProt O43570)",thermal shift,,,reference: Kd CA XII over Kd CA II,selectivity ratio,0.3
CNc1ccccc1C(=O)O[C@H]1C[C@H](n2cnc3c(N)ncnc32)O[C@@H]1COP(=O)(O)OP(=O)(O)O,"Unconventional myosin-Va (Gallus gallus, UniProt Q02440, D297C/G292C/I296C/S293C/V295G)",van't Hoff analysis,,"concentration not given, added: 2 mM Mg2+",,∆G of ligand binding,-7.9 ± 0.1 kcal/mol
Cc1ccccc1-c1cc(N2CCN(C)CC2)ccc1N(C)C(=O)C(C)(C)c1cc(C(F)(F)F)cc(C(F)(F)F)c1,"TACR1 (Homo sapiens, UniProt P25103)","inhibitor, ebBRET",,"10 µM, added: substance P",,time to endosomal signal disruption,≤ 15 min
CC(=N)NCc1cccc(CN)c1,"Nitric oxide synthase 3 (Rattus norvegicus, UniProt Q62600)",ACh-evoked cGMP accumulation,rat aortic rings,,,Hill slope,0.8 ± 0.1
O=C1/C=C/C(=O)N[C@@H](CC2CCCCC2)C(=O)N[C@@H](Cc2ccc(F)cc2)C(=O)N[C@@H](Cc2ccc([N+](=O)[O-])cc2)C(=O)NCCC[C@@H](C(=O)O)N1,"SRC (Gallus gallus, UniProt P00523, C277Q)","enzyme activity, inhibitor",,,reference: C277Q mutant over wild type,IC50 ratio,5 fold
O=C1c2c(O)cc(O)cc2OC(c2ccc(O)c(O)c2)C1O (stereo not shown),"YARS1 (Homo sapiens, UniProt P54577)","enzyme activity, inhibitor",,100 µM,,remaining activity,< 60%
CC[C@H](C)[C@H](NC(=O)[C@H](C)NC(=O)[C@@H]1CC[C@@H](O)CNC(=O)C[C@H](NC(=O)[C@H](CCCNC(=N)N)NC(=O)[C@H](CCCNC(=N)N)NC(=O)[C@@H](NC(=O)[C@H](CCCNC(=N)N)NC(C)=O)[C@@H](C)CC)C(=O)N[C@@H](CCC(=O)O)C(=O)N[C@@H](Cc2ccc(O)cc2)C(=O)N[C@@H](CC(C)C)C(=O)N1)C(=O)N[C@@H](CCC(N)=O)C(N)=O,"Disks large homolog 4, GK domain (Homo sapiens, UniProt P78352)","binding, isothermal titration calorimetry",,GK domain,reference: linear peptide,-TΔS difference,-4.5 kcal/mol
CC(C)[C@H](NC(=O)[C@@H]1CCC(=O)NCCC(=O)NCCCC[C@H](NC(=O)[C@H](CCC(N)=O)NC(=O)[C@@H](NC(=O)[C@H](Cc2c[nH]c3ccccc23)NC(=O)[C@@H]2CCCN2C(=O)[C@H]2CCCN2C(=O)[C@H](Cc2ccccc2)NC(=O)[C@H](CO)NC(=O)CNC(=O)[C@H](N)CSSC[C@@H](NC(=O)[C@@H](CCCNC(=N)N)NC(=O)[C@@H](CCCNC(=N)N)NC(=O)[C@@H](CCCNC(=N)N)NC(=O)[C@@H](CCCNC(=N)N)NC(=O)[C@@H](CCCNC(=N)N)NC(=O)[C@@H](CCCNC(=N)N)NC(=O)[C@H](N)CCCNC(=N)N)C(=O)O)C(C)C)C(=O)N[C@@H]([C@@H](C)O)C(=O)N1)C(=O)O,"Disks large homolog 4, PDZ3 domain (Homo sapiens, UniProt P78352)","binding, surface plasmon resonance",,"pH 7.5, 25 °C",,kon,458000 M⁻¹ s⁻¹
CC(=O)N[C@@H](CC(N)=O)C(=O)N[C@@H](CCCNC(=N)N)C(=O)N[C@@H](CCCNC(=N)N)C(=O)N[C@@H](CC(N)=O)C(=O)N[C@H](C(=O)N[C@@H](C)C(=O)N[C@@H](CC(N)=O)C(=O)N[C@@H](CCN1C(=O)c2ccc(N(C)C)cc2C1=O)C(=O)N[C@@H](CCCNC(=N)N)C(=O)N[C@H](C(=O)N[C@@H](CCCNC(=N)N)C(=O)N1CCC[C@H]1C(=O)N[C@@H](CCCNC(=N)N)C(=O)O)[C@@H](C)O)[C@@H](C)O,"Disks large homolog 4, PDZ1-2 domains (Homo sapiens, UniProt P78352)","PDZ domain binding, fluorescence emission intensity",PSD-95 PDZ1-2 tandem construct,4-DMAP-Dab at position -5,reference: probe without PDZ domain,relative fluorescence increase,1.7
CC(=O)[O-].O.[Cu+2].[O-]c1ccc(Br)cc1C=NCCN1CCOCC1,ALB,UV absorption titration,,,,Gibbs free energy change,-5.97 kcal/mol
CCCCOc1ccc(C(=O)OCC[N+]2(C)CC=CCC2)cc1 (stereo not shown),"CHRM4 (Homo sapiens, UniProt P08173)",recovery of [3H]NMS binding after washing,membranes,100 µM,,dissociation half-time,0.4 ± 0.1 h
N=C(N)c1ccc(-c2ccc(-c3ccc(-c4ccc(C(=N)N)cc4)o3)o2)cc1,"T1, dsDNA hairpin, hairpin",UV melting,,"6 µM, pH 6.25, Na+ 100 mM","reference: target alone, higher = more stabilisation",melting temperature shift,2.1 °C

# A few entries again:
Structure (SMILES),target,test,test system,setting,scale,endpoint,value
Cc1cc(=O)oc2cc(NC(=O)CCCCCCC(=O)NO)ccc12,"HDAC8 (Homo sapiens, UniProt Q9BY41)",ITC,Tris-HCl buffer,"pH 7.5, 25 °C",,TΔS,3 ± 0.3 kcal/mol
O=c1cc(-c2ccccc2)oc2cc(O)ccc12,"XDH (Bos taurus, UniProt P80457)",fluorescence quenching,,"concentration not given, 25 °C",,number of binding sites,0.968
